Published values collected from several papers.
Every numbered part comes from another study and shows a few of its results, in no order. Changes are numbered by the printed parent chain.
Sequence of UniProt P28335 (whole entry, looked up): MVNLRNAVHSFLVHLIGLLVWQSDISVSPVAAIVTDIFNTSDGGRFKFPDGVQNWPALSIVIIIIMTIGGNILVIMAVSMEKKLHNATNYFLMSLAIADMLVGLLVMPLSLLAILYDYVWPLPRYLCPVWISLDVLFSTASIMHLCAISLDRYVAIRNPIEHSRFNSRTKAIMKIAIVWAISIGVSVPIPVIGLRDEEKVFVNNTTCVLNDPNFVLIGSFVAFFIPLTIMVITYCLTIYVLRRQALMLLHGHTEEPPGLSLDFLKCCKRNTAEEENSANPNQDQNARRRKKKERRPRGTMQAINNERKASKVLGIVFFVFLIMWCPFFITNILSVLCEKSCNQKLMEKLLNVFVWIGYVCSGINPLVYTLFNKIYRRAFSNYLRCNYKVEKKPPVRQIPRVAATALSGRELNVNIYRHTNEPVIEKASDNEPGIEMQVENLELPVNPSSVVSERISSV
Sequence of UniProt P28223 (whole entry, looked up): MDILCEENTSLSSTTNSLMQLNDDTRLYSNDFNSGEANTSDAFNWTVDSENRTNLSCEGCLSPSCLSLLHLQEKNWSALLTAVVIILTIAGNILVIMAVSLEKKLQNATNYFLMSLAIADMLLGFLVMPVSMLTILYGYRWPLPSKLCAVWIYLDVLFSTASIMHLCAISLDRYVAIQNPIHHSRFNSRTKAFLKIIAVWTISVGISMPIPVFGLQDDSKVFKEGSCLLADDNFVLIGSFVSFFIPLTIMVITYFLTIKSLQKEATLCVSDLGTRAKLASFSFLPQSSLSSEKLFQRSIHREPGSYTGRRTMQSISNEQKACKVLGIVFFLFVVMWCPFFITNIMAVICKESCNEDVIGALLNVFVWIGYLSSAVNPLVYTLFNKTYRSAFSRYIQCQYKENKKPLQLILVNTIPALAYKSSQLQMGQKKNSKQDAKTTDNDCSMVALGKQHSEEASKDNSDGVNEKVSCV

Study 1 — effect on: peptide-MHC binding; form: peptide; tested at: concentration not given
Target: HLA class I histocompatibility antigen, A alpha chain, allele A*25:01 (Homo sapiens, UniProt P04439)
Sequence | binding
VVRVRRELL | inactive
KLKKKSAFY | inactive
ELYENKPDV | inactive
KLINTLFHA | inactive
NVMDPMHGA | inactive
WLGWGHAWV | inactive
GRYNLISPK | inactive
AMDTHLYFE | inactive

Study 2 — cell line: HEK-293T-ACE2-TMPRSS2; method: cell count; tested at: 10 µM
Compound | viability
NC1(C(=O)NCCC2CN(Cc3ccco3)CCO2)CCCC1 (centres unmarked) | 81%
COCCc1noc([C@@H]2CN(Cc3ccc(C)o3)C[C@H]2CO)n1 | 90%
Oc1ccc(CN2CCN(c3cccc(C(F)(F)F)c3)CC2)c2cccnc12 | 66%
O=c1c(Cl)c(Cl)cnn1Cn1nnc2ccccc2c1=O | 83%

Study 3 — target: CCND3, cyclin fold, Cln2 fusion (human); method: yeast growth competition, sequencing; sample: yeast; setting: weak parent motif; reference: not given; direction: higher = stronger binding
Starting sequence: viral docking peptide; KGVKRKLFAEDSS; partner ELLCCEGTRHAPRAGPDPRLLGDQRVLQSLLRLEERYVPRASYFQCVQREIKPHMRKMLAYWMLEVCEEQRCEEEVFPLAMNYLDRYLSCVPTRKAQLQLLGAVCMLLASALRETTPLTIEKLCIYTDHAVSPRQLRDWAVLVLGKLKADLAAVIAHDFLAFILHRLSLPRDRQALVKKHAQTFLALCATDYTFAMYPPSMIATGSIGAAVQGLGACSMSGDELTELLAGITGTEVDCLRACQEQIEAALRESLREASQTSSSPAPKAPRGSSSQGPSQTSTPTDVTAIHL
Change | normalised enrichment score
F8T | 0.1
L7Y | 0.147
K6N | 0.228
R5Q | 0.0753
F8E | 0.575
D11I | 0.185
D11V | 0.145
A9W | -0.0465

Other studies, line by line — tested at: 10 µM
Structure (SMILES) | target or system | effect on | method | time | reference | measurement | result
CN1CCN(C(=O)C(C)(C)c2ccc(C(=O)Nc3cn4cc(-c5ccncc5)ccc4n3)cc2)CC1 | HTR2C (Homo sapiens, UniProt P28335) | binding | radioligand binding | – | – | inhibition | 12.4%
CNCC[C@@H](Oc1ccccc1C)c1ccccc1 | HEK-293T/ACE2 | – | – | 16 h | vehicle | viability | 99.9%
O=C1CCc2cc(Nc3cc(OC4CCOCC4)c([N+](=O)[O-])cc3Cl)ccc2N1 | HTR2A (Homo sapiens, UniProt P28223) | binding | radioligand binding | – | – | inhibition | 3.21%

A few entries again (study 1):
Sequence | binding
WLGWGHAWV | inactive
ELYENKPDV | inactive
GRYNLISPK | inactive
